Assay results gathered from unrelated publications.
Every numbered part comes from another study and shows a few of its results, in no order.
Chain of UniProt Q96L34 (whole entry, looked up): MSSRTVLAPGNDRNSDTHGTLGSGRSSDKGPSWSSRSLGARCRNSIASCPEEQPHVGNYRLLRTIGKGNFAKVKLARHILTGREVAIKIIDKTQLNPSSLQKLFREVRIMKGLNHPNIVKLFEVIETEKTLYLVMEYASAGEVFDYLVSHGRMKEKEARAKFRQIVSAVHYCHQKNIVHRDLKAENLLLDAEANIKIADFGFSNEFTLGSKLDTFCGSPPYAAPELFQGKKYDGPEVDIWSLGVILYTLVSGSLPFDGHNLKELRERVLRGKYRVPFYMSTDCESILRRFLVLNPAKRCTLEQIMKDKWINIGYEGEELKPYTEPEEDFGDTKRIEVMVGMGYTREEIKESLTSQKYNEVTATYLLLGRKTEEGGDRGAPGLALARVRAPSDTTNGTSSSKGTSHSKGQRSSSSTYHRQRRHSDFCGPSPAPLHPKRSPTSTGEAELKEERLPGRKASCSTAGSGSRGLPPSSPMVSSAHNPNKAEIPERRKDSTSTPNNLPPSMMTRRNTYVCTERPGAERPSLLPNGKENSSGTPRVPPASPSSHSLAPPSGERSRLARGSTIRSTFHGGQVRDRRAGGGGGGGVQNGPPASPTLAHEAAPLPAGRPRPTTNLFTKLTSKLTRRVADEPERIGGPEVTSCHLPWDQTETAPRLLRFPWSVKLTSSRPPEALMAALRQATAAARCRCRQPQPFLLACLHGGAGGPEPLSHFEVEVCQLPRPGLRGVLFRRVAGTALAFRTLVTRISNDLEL
Chain of UniProt Q13464 (whole entry, looked up): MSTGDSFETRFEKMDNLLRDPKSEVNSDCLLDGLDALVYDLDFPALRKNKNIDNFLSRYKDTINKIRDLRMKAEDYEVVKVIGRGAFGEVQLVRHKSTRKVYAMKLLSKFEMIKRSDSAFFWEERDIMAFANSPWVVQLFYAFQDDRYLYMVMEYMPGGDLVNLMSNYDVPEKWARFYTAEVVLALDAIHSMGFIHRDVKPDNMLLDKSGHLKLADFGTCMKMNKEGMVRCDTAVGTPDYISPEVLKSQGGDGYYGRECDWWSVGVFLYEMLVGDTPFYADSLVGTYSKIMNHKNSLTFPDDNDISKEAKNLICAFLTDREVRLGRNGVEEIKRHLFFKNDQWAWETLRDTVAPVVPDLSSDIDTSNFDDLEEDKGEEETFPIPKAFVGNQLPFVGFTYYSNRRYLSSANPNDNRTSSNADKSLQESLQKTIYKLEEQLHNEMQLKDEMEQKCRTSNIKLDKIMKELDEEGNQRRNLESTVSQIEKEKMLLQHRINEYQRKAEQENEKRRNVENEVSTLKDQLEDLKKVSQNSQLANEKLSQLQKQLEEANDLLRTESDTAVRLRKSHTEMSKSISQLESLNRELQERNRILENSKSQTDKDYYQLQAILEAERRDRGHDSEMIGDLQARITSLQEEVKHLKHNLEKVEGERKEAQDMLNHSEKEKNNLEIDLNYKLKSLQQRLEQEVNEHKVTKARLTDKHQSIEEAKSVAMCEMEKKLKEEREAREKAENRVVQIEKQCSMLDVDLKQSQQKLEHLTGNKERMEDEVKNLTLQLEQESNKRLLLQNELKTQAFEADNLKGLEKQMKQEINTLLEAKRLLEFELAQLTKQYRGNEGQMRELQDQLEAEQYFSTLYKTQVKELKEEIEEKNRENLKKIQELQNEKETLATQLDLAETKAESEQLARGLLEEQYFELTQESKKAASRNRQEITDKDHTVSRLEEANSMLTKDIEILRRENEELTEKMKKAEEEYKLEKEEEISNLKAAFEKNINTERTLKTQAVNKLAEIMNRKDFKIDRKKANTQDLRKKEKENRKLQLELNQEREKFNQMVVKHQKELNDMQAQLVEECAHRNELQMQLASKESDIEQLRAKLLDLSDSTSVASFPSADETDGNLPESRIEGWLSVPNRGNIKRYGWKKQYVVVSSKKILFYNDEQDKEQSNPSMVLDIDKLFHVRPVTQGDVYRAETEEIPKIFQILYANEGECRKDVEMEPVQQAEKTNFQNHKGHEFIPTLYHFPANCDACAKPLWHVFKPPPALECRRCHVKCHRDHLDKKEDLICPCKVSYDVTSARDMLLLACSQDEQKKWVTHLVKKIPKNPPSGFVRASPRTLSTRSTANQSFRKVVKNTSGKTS
Chain of UniProt Q9HAZ1 (whole entry, looked up): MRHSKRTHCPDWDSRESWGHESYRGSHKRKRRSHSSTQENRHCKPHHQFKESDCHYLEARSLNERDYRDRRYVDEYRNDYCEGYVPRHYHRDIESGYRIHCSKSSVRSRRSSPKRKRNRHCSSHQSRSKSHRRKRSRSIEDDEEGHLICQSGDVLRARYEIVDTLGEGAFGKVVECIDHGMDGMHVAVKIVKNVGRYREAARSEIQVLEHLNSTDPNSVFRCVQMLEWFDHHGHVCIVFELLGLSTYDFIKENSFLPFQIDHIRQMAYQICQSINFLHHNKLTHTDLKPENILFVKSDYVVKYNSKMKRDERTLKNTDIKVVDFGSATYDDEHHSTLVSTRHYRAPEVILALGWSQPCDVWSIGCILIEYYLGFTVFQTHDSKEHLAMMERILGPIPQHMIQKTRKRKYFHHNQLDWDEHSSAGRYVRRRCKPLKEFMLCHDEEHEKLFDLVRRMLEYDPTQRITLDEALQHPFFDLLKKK
Chain of UniProt P42681 (whole entry, looked up): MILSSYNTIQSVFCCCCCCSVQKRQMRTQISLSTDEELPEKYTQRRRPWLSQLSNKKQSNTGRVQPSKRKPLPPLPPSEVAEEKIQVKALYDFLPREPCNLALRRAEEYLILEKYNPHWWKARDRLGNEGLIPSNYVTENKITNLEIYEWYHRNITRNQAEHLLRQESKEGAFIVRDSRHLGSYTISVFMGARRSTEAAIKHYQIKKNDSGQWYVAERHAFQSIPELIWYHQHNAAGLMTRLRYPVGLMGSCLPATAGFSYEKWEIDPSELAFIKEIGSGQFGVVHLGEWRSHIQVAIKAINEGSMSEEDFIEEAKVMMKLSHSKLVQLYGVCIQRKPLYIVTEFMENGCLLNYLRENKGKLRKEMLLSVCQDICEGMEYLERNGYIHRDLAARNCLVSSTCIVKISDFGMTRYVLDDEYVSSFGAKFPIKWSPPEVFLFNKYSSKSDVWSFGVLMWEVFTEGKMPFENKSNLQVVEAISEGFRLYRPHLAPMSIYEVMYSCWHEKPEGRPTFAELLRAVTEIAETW
Chain of UniProt O75676 (whole entry, looked up): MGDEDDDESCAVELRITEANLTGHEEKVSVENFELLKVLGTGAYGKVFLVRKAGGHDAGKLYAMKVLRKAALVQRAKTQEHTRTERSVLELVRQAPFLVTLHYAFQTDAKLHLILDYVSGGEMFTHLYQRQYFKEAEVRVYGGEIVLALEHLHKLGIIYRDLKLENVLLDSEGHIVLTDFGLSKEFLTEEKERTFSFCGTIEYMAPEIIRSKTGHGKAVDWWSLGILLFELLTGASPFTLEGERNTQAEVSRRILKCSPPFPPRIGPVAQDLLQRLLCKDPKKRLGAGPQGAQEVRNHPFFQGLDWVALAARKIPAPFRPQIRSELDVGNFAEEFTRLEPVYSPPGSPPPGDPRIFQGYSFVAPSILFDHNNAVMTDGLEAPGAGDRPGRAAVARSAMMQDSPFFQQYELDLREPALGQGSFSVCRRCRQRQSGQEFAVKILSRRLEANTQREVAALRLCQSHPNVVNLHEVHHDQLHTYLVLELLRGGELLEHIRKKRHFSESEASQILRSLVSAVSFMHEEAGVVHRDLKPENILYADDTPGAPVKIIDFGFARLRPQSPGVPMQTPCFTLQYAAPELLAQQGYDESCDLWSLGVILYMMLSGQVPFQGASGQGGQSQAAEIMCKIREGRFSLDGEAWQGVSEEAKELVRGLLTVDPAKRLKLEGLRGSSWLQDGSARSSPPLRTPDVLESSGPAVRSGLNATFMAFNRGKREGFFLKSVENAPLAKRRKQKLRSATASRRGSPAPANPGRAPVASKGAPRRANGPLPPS

Set 1
Target: Alpha-1B adrenergic receptor (ADRA1B, Homo sapiens, UniProt P35368)
Chain of UniProt P35368 (whole entry, looked up): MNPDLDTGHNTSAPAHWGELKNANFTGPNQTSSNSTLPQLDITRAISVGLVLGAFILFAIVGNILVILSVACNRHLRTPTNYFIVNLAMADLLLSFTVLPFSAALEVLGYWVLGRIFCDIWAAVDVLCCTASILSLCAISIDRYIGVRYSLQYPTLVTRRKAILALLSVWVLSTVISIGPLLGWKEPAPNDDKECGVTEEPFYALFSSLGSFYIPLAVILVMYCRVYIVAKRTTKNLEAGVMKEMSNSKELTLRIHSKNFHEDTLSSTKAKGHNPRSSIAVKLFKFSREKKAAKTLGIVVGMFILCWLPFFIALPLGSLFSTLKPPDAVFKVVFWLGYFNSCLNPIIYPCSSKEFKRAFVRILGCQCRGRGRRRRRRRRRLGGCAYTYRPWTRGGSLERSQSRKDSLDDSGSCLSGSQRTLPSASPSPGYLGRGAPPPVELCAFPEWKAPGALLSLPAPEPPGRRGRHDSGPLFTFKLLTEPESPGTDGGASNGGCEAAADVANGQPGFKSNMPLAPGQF
Observed: binding
Technique: radioligand binding
Tested at: 10 µM
Measurement: inhibition
CC(=O)N1CCC(c2ccc(C(=O)NC(=N)N)cc2C(F)(F)F)CC1: -15.6%
CC(C)(O)c1cncc(-c2nc3ccc(F)cc3n2C2CC2)c1: 23.8%
CNC(=O)Nc1ccc2c(c1)[C@]1(CC2)OC(=O)N(CC(=O)N(Cc2ccc(F)cc2)[C@@H](C)C(F)(F)F)C1=O: -1.33%
C[C@@]1(Cc2ccc(C#N)cc2)C(=O)N(c2cc(Cl)cc(Cl)c2)c2ncc(C(=O)NC3(c4nc(C5CCC5)no4)CC3)n21: 23.8%
CN1CCN(C(=O)C(C)(C)c2ccc(C(=O)Nc3cn4cc(-c5ccncc5)ccc4n3)cc2)CC1: 4.68%
CN([C@@H]1CCc2c(CC(=O)O)c3cc(S(C)(=O)=O)ccc3n2C1)S(=O)(=O)c1ccc(F)cc1: -10.6%
CCOC(=O)c1cc2cc(-c3cc(C(=O)NCc4ccc(C(=O)O)cc4)nn3C)ccc2[nH]1: -1.29%

Set 2
SMILES: COc1cc2c(cc1OC)-c1[nH]nc(Nc3cccc(F)c3)c1C2
Observed: enzyme activity
Mode: inhibitor
Tested at: 0.5 µM
Reference: control
Measurement: remaining activity
Serine/threonine-protein kinase PAK 3 (PAK3, Homo sapiens, UniProt O75914): 93.1%
Misshapen-like kinase 1 (MINK1, Homo sapiens, UniProt Q8N4C8): 83.6%
Myosin-IIIb (MYO3B, Homo sapiens, UniProt Q8WXR4): 107%
Dual specificity protein kinase CLK4 (CLK4, Homo sapiens, UniProt Q9HAZ1): 77.7%
Tyrosine-protein kinase TXK (TXK, Homo sapiens, UniProt P42681): 60.6%
Serine/threonine-protein kinase Nek3 (NEK3, Homo sapiens, UniProt P51956): 97.1%
MAP/microtubule affinity-regulating kinase 4 (MARK4, Homo sapiens, UniProt Q96L34): 70.6%
Rho-associated protein kinase 1 (ROCK1, Homo sapiens, UniProt Q13464): 87.5%
Serine/threonine-protein kinase MRCK beta (CDC42BPB, Homo sapiens, UniProt Q9Y5S2): 99.2%
Serine/threonine-protein kinase tousled-like 2 (TLK2, Homo sapiens, UniProt Q86UE8): 103%
Ribosomal protein S6 kinase alpha-4 (RPS6KA4, Homo sapiens, UniProt O75676): 99.8%

Set 3
Target: RING finger protein unkempt homolog, zinc fingers 1-6, GST-SBP tag (UNK, Homo sapiens, UniProt Q9C0B0, residues 30-357)
Chain of UniProt Q9C0B0 (30-357, looked up): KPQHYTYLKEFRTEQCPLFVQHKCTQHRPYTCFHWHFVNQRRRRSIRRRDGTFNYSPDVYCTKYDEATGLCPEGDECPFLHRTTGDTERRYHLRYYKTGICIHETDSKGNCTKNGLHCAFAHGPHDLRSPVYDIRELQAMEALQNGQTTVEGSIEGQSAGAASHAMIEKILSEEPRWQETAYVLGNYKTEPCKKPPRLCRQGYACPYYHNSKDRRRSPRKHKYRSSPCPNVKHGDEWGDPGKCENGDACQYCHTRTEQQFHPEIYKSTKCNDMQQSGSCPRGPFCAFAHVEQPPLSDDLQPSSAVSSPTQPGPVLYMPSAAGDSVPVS
Technique: RNA Bind-n-Seq
Form: RNA
Sample: in vitro
Tested at: not given
Notes: RNA with constant flanks, human and mouse sites, ends assumed
Reference: input RNA pool
Direction: higher = stronger binding
Measurement: bound/input enrichment
All sequences stand within: GGGAGUUCUACAGUCCGACGAUC … CAACAGAGGAUUGAGCAUCA
AUUUAAAAACAAAAAAGCAUAAAUAUUCUGGUCCUUCAGCAAUGCUUUCUCUGAAGAAAUAUUUAACGGAAGGACUUCUCCAGUUCACCAUCCUGCUGAGUCUGAUUGGGGUUCGGGUGG: 0.445 ratio
CCUCCUUCCCCCCACCCAAUCCUUUUUUUUUUCUUUUUUGCUUUUCUUUUCUUUUUUUUUAGUUUUUAUUUACUUUACCUAGUAUGCCUUUUUUUAGUUGCUUCUCAAGUCAGAAAACUU: 94.5 ratio
GGUAACAAGAGACUGGAUGCUGCUUAUCGUUCCAUGAACGGGAAAGGCCCCGUUUACUUACUUUUCAGUGUCAACGGCAGUGGACACUUCUGUGGCGUGGCAGAAAUGAAAUCUGCUGUG: 0.152 ratio
UCUCCGUCGAAUGCAGCAGGUGGCUACCCAGCUGGGCAUGUUCAGCCCGAUCGCCCUCCAGUUUGGAGCCUACAGCGCCUACACCCAGGCCCUGAUGCAGCAGCAGGCGGCCCUGGUAGC: 0.215 ratio
CAUCAGGAUGUUCCAUCUCAGGAUGAUUCCAAACCAACCCAGAGGCAAUUUACUAUUCUCAACUUUAAUGAUUUAAUGUCAUCUGCCGUUCCCAUGACACCUGAAGAUCCUUCAUUUUGG: 0.157 ratio
AGCGGAGGCUCAGGAGCCAAGCCCUCAGACGCAGCAUCAGAAGCUGCUCGCCCAGCUACUAGUACUUUGAAUCGCUUCUCAGCCCUUCAACAAGCGGUACCCACAGAAAGCACAGAUAAU: 0.297 ratio
CUGCUGGCUUUGUAUCAUCUUUAUGUUUAAAUGCAAAGGAAAUUAAAAAUGUCUGGAAAUGUUUUUGACUAAGUAAUGCAGCCUAGAAGCAAUGGUUCUCUUCAACCCUUCAGAUGUCUA: 0.202 ratio
GGUGGAAGCAUGCUUAAAGCUCUGCCUUUGAAGAGUAGUCUUACUCCAAGUUCUCAAGAUGACAGCAACCAGGAAGAUGAUGGCCAAGAUAGCUCUCCAAAGUGGCCAGAUUCUGGUUCA: 0.371 ratio

Single results of other studies
CC(C)n1cnc(-c2ccc(F)cc2)c1-c1ncc(C(=O)Nc2ccc(N3CCN(C)CC3)cc2)[nH]1
Arrhythmia incidence (IPF patients; 30 mg once daily, adverse event): 0%

Some of these lines once more (set 2):
Myosin-IIIb (MYO3B, Homo sapiens, UniProt Q8WXR4): 107%
Rho-associated protein kinase 1 (ROCK1, Homo sapiens, UniProt Q13464): 87.5%
